Measured values pooled from the literature.
Lines come from different studies, so protocols differ.
Organism: Pseudomonas aeruginosa

COc1cc(C(=O)O)ccc1NC(=O)c1ccc(NC(=O)c2ccc(NC(=O)[C@H](Cc3c[nH]nn3)NC(=O)c3ccc(NC(=O)/C(C)=C/c4ccc(O)cc4)cc3)cc2)cc1O
MIC (broth microdilution; ciprofloxacin-sensitive): 32 µg/mL

COc1ccc2ccc(O)c(/C=N/[C@H]3CCCC[C@H]3/N=C/c3ccc(C)cc3O)c2c1
MIC (microbial growth, broth dilution; clinical isolate): > 40 µM

CC[C@H](C)[C@H](NC(=O)[C@@H](CCCNC(=N)N)NC(=O)[C@H](CCCNC(=N)N)NC(=O)[C@@H]1CCCN1C(=O)[C@@H]1CCCN1C(=O)[C@H](CCCNC(=N)N)NC(=O)[C@@H]1CCCN1C(=O)[C@H](CCCNC(=N)N)NC(=O)[C@@H]1CCCN1C(=O)[C@H](CC(C)C)NC(=O)[C@H](Cc1ccc(O)cc1)NC(=O)[C@@H]1CCCN1C(=O)[C@@H]1CCCN1C(=O)[C@H](CCCNC(=N)N)NC(=O)[C@H](CC(=O)O)NC(=O)[C@@H](N)C(C)C)C(=O)N[C@@H](Cc1ccc(O)cc1)C(=O)N[C@@H](CC(N)=O)C(=O)N[C@H](CCCNC(=N)N)C(N)=O
MIC (broth microdilution; DSM 1117; 18 h, 37 °C, 25% MHB2): 64 µg/mL

CNC(C)C1CCC(N)C(OC2C(N)CC(N)C(OC3OCC(C)(O)C(NC)C3O)C2O)O1 (stereo not drawn)
MIC (microbial growth, broth dilution; 27853): 1 µM

CCCCCCCCCc1nc2cc(Cl)ccc2c(=O)n1CCN
MIC (planktonic growth; PAO1): > 100 µM

CC[C@H]1OC(=O)[C@H](C)[C@@H](OC(=O)Cc2ccc3c(c2)OCO3)[C@H](C)[C@@H](O[C@@H]2O[C@H](C)C[C@H](N(C)C)[C@H]2O)[C@](C)(OC)C[C@@H](C)C(=O)[C@H](C)[C@@H](O)[C@]1(C)O
MIC (DSM 50071; with: colistin sulfate at 0.5 x MIC): 32 µM

COc1c(NC(=O)c2ccc(NC(=O)c3ccc(NC(=O)[C@H](Cc4c[nH]nn4)NC(=O)c4ccc(NC(=O)/C(C)=C/c5ccc(O)cc5)cc4)cc3)cc2O)ccc(C(=O)O)c1O
MIC (broth microdilution; ciprofloxacin-resistant): 32 µg/mL

CCCCCCCCCC(=O)Oc1c(C)c(OC)c2c(/C=C/c3ccccc3)c(CCCCCCCC)c(=O)oc2c1C
MIC (microbial growth, broth dilution; ATCC27853): 5000 µg/mL

CC1(C)C(NC(=O)C(=NOC2(C(=O)O)CC2)c2csc(N)n2)C(=O)N1OS(=O)(=O)O (stereo not drawn)
MIC (agar dilution; PAO1): 2 µg/mL

COc1ccc2ccc(O)c(/C=N/[C@H]3CCCC[C@H]3/N=C/c3cccc(OC)c3O)c2c1
MIC (microbial growth, broth dilution; clinical isolate): > 40 µM

CC1(C)C(NC(=O)C(=NOCC(=O)N2CC3CCCC3C2C(=O)O)c2csc(N)n2)C(=O)N1OS(=O)(=O)O (stereo not drawn)
MIC (agar dilution; ATCC 27853): > 64 µg/mL

CC[C@H](C)[C@@H]1NC(=O)[C@H](CCC(=O)O)NC(=O)[C@@H]2CSSC[C@@H]3NC(=O)[C@H](Cc4ccc(O)cc4)NC(=O)[C@@H](NC(=O)[C@@H](NC(=O)[C@H](C)N)[C@@H](C)O)CSSC[C@@H](C(=O)N[C@@H](CCCNC(=N)N)C(=O)O)NC(=O)[C@H](CSSC[C@H](NC(=O)[C@H](CCCNC(=N)N)NC(=O)CNC(=O)[C@H]([C@@H](C)O)NC(=O)[C@H](CCCNC(=N)N)NC3=O)C(=O)N[C@@H](C)C(=O)N[C@@H]([C@@H](C)O)C(=O)N[C@@H](CCCNC(=N)N)C(=O)N[C@@H](CCC(=O)O)C(=O)N[C@@H](CO)C(=O)N[C@@H](CC(C)C)C(=O)N[C@@H](CO)C(=O)NCC(=O)N[C@@H](C(C)C)C(=O)N2)NC(=O)[C@H](CC(C)C)NC(=O)[C@H](CCCNC(=N)N)NC(=O)[C@H](Cc2ccc(O)cc2)NC(=O)[C@H](CC(C)C)NC(=O)[C@H](CCCNC(=N)N)NC(=O)CNC(=O)[C@H](CO)NC1=O
MIC (broth turbidity; ATCC 27853): 25 µM

polymyxin B
MIC (broth microdilution; ΔmexAB-oprM): 1 µg/mL

CC[C@H]1OC(=O)[C@H](C)[C@@H](OC(=O)Cc2c(F)cc([N+](=O)[O-])cc2F)[C@H](C)[C@@H](O[C@@H]2O[C@H](C)C[C@H](N(C)C)[C@H]2O)[C@](C)(OC)C[C@@H](C)C(=O)[C@H](C)[C@@H](O)[C@]1(C)O
MIC (microbial growth; ATCC27853): > 32 µg/mL

C=CCOc1c(C)c(OC)c(C(=O)/C=C/c2ccccc2)c(OCC=C)c1C
MIC (microbial growth, broth dilution; ATCC27853): 5000 µg/mL

CCOc1c(NC(=O)c2ccc(NC(=O)[C@H](Cc3c[nH]nn3)NC(=O)c3ccc(NC(=O)/C(C)=C/c4ccc(O)cc4)cc3)cc2)ccc(C(=O)Nc2ccc(C(=O)O)c(O)c2OC)c1O
MIC (broth microdilution; ciprofloxacin-resistant): 64 µg/mL

CCCCCCCC[N+](C)(C)CCCCOc1cc(OCCCC[N+](C)(C)CCCCCCCC)cc(OCCCC[N+](C)(C)CCCCCCCC)c1.[Br-].[Br-].[Br-]
MIC (PAO1): 16 µM

CC[C@H]1OC(=O)[C@H](C)[C@@H](OC(=O)Cc2c(F)cccc2F)[C@H](C)[C@@H](O[C@@H]2O[C@H](C)C[C@H](N(C)C)[C@H]2O)[C@](C)(OC)C[C@@H](C)C(=O)[C@H](C)[C@@H](O)[C@]1(C)O
MIC (DSM 50071; with: colistin sulfate at 0.5 x MIC): 64 µM

CCCCCCCCCCn1cc[n+](CCCCCCOc2cc(OCCCCCC[n+]3ccn(CCCCCCCCCC)c3)cc(OCCCCCC[n+]3ccn(CCCCCCCCCC)c3)c2)c1.[Br-].[Br-].[Br-]
MIC (PAO1): 16 µM

CN[C@H](CC(C)C)C(=O)N[C@H]1C(=O)N[C@@H](CC(N)=O)C(=O)N[C@H]2C(=O)N[C@H]3C(=O)N[C@H](C(=O)N[C@H](C(=O)NCC(N)=O)c4cc(O)cc(O)c4-c4cc3ccc4O)[C@H](O)c3ccc(c(Cl)c3)Oc3cc2cc(c3O[C@@H]2O[C@H](CO)[C@@H](O)[C@H](O)[C@H]2O[C@H]2C[C@](C)(NCc3ccc(OCc4cn(CC(=O)N[C@H](C(=O)N[C@@H](CCN)C(=O)N[C@H]5CCNC(=O)[C@H]([C@@H](C)O)NC(=O)[C@H](CCN)NC(=O)[C@H](CCN)NC(=O)[C@H](CC(C)C)NC(=O)[C@@H](CC(C)C)NC(=O)[C@H](CCN)NC5=O)[C@@H](C)O)nn4)c(OC)c3)[C@H](O)[C@H](C)O2)Oc2ccc(cc2Cl)[C@H]1O
MIC (broth microdilution; ATCC 27853, cation-adjusted Mueller-Hinton broth; 18 to 20 h, 37 °C, 0.002% polysorbate 80): 16 µg/mL

COc1ccc2ccc(O)c(/C=N/[C@H]3CCCC[C@H]3/N=C/c3cc(F)ccc3O)c2c1
MIC (microbial growth, broth dilution; clinical isolate): > 40 µM

CC(C)C[C@@H]1NC(=O)[C@@H](CC(C)C)NC(=O)[C@H](CCN)NC(=O)[C@@H](NC(=O)[C@H](CCN)NC(=O)[C@@H](N)[C@@H](C)O)CCNC(=O)[C@H]([C@@H](C)O)NC(=O)[C@H](CCN)NC(=O)[C@H](CCN)NC1=O
MIC (broth microdilution; ATCC 27736, cation-adjusted Mueller-Hinton broth): > 138 µM

CCCCCCCC[N+](C)(C)CCCCCCCCOc1cc(OCCCCCCCC[N+](C)(C)CCCCCCCC)cc(OCCCCCCCC[N+](C)(C)CCCCCCCC)c1.[Br-].[Br-].[Br-]
MIC (PAO1): 4 µM

CC1(C)[C@H](NC(=O)/C(=N\OC2(C(=O)O)CCCCC2)c2csc(N)n2)C(=O)N1OS(=O)(=O)O
MIC (agar dilution; ATCC 27853): 32 µg/mL
